Measurements from different studies.
Each numbered part is a random draw from the data of one study; scales do not carry over between parts.
UniProt O15530, sequence (whole entry, looked up): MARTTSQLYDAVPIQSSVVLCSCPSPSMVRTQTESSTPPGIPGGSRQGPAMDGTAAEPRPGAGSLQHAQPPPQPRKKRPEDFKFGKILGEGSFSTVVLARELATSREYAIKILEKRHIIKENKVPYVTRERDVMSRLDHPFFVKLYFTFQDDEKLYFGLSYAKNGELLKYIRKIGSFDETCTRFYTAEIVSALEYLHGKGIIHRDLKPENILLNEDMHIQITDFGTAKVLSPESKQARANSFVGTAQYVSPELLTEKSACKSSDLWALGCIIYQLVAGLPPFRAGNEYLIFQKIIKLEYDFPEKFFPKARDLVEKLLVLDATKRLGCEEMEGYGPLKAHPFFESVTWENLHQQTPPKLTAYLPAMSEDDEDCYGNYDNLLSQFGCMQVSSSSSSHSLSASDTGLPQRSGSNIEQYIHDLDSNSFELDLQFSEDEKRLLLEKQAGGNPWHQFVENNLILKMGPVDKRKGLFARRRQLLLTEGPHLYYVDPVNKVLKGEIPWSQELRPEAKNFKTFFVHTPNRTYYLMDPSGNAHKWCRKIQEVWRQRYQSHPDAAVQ
UniProt P10721, sequence (whole entry, unmodified, looked up): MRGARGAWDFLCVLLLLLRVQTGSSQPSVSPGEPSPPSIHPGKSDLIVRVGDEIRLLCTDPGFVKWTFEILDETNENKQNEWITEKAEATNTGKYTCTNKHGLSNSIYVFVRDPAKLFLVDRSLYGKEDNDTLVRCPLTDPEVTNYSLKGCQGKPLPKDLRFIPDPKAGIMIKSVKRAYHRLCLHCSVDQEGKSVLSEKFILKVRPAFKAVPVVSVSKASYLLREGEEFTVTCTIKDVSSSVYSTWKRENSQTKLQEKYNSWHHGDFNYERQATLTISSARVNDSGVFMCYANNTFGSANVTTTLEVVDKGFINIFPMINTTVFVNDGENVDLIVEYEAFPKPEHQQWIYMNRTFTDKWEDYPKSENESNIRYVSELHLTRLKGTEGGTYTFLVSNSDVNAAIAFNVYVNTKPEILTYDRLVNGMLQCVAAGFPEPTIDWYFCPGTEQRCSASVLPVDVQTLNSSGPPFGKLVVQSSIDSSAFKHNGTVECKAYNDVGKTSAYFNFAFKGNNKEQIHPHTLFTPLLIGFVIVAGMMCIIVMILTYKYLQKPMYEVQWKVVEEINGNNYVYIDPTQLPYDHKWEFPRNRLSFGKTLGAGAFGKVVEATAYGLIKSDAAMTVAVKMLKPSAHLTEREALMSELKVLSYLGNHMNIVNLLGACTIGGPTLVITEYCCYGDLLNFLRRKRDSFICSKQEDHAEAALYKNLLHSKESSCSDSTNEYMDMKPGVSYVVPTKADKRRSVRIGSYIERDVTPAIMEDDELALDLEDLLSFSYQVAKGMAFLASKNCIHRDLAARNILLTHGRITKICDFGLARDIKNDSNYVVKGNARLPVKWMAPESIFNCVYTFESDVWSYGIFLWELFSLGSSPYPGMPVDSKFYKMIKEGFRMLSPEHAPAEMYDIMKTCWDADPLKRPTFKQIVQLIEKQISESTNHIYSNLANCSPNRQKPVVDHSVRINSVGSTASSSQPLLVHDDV
UniProt P29320, sequence (whole entry, looked up): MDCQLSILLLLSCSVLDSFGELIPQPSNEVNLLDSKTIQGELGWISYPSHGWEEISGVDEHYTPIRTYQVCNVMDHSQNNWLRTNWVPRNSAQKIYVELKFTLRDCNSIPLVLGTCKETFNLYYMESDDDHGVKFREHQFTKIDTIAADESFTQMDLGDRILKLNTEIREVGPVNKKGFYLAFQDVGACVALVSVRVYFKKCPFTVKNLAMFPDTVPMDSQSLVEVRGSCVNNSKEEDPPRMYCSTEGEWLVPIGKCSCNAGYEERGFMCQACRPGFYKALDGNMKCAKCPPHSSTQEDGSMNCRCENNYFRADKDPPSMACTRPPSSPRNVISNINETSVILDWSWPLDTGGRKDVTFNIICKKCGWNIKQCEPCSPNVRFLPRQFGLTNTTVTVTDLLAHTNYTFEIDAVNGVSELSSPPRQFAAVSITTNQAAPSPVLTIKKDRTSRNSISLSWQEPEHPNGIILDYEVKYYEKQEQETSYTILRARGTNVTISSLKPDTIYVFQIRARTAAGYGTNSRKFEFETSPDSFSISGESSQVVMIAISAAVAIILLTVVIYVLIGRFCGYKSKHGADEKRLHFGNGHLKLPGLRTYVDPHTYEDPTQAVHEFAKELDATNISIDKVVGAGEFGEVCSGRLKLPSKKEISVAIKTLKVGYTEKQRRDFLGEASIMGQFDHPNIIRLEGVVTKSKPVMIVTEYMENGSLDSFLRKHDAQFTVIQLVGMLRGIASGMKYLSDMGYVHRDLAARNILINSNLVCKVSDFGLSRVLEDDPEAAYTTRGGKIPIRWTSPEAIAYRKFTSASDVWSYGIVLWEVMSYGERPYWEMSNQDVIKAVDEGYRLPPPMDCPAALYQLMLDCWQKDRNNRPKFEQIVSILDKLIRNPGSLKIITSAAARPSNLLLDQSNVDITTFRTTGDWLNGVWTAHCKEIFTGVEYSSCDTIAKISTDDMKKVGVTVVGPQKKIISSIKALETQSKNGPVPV
UniProt Q9UKE5, sequence (whole entry, looked up): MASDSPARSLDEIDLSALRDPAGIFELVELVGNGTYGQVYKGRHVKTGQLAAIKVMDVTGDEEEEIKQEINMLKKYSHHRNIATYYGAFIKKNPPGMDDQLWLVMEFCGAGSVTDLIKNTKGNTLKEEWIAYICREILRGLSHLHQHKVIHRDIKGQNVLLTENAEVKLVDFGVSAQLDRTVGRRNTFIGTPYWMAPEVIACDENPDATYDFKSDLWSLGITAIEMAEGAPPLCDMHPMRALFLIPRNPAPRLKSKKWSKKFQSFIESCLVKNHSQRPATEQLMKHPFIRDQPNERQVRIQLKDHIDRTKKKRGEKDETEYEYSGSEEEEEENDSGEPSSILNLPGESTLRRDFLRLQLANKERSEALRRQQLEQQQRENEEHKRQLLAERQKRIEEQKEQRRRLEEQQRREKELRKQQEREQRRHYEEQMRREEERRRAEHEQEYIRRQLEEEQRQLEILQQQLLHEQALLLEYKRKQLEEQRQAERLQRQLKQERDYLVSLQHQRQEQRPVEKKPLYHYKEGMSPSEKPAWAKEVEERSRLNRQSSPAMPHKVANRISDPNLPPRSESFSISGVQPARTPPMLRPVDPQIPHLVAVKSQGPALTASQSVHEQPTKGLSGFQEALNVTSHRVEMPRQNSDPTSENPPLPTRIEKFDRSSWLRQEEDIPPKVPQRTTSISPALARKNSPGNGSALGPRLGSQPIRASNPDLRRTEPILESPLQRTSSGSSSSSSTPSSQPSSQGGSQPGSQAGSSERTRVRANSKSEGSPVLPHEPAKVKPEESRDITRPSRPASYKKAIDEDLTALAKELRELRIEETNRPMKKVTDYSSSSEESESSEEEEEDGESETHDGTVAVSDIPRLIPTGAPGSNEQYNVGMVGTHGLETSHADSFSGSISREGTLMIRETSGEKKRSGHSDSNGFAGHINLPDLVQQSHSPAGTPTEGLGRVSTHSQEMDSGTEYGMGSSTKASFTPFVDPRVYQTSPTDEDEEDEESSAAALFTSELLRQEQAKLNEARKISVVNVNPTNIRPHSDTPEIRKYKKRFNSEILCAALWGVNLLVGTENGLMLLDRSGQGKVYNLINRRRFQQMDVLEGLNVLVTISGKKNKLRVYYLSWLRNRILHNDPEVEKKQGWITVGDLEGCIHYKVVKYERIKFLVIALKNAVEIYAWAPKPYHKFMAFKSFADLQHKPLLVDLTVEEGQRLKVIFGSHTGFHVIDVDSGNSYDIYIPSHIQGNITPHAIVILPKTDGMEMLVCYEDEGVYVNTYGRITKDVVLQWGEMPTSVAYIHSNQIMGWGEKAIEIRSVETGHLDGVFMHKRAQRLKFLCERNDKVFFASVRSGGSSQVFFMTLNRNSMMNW

Series 1 — host: mouse; medium: microsomes or S9; concentration: 2 µM; time: 0.5 h
Structure (SMILES) | remaining compound [%]
Cc1sc(NC(=O)NCCC(=O)OC(C)C)c(C#N)c1C | 0.454
CCN(CC)CC/C=C/C1(O)c2ccccc2-c2ccccc21 | 0.352
Oc1cc(Nc2cccc(Br)c2)nc(O)n1 | 93.9
Cc1c2c(=O)[nH]cnc2c(C(=O)c2ccccc2)n1-c1ccccc1 | 80.9
O=C1Nc2ccccc2C12Oc1ccccc1C1CC(c3cccnc3)=NN12 (stereo not drawn) | 18.9
COc1nn(C)c(=O)n1-c1cccc(Cl)c1Cl | 6.45
Cc1occc1C(=O)N1CCC2(CCc3nnc(C(C)C)n3CC2)CC1 | 81.5
Cc1ccc(C)c(-n2nnnc2SCc2nc3cc(C(F)(F)F)ccc3c(=O)[nH]2)c1 | 21.3
COC(=O)c1nc(C2CC(C(C)(C)C)=NO2)cc(N)c1Cl (stereo not drawn) | 54.4
COc1ccc2c(c1)cc(C(=O)Nc1c(C)cccc1C)n2C | 3.57
C=CC(C)(O)CC[C@]1(C)[C@H]2CC(=O)C=C(C)[C@]2(C)C[C@@H](O)[C@@H]1C (stereo partly drawn) | 10.5
Clc1ccc(OCCn2cnc(Cl)c2Cl)cc1 | > 99
CCN(CC)CCNc1nc(C)cc(COC)c1C(N)=O | 36.1
Fc1ccc2nc(-c3csc(-c4ccco4)n3)[nH]c2c1 | 0.053
O=S1(=O)CCC(S(=O)(=O)N2CCN(c3ccccc3)CC2)C1 (stereo not drawn) | 34.6
CC(C)n1nc(-c2nnc(-c3cccc(Br)c3)[nH]2)c2ccccc2c1=O | 5.63

Series 2 — observed: enzyme activity; action: inhibitor; concentration: 10 µM
Target: Calcium/calmodulin-dependent protein kinase type II subunit alpha (CAMK2A, Homo sapiens, UniProt Q9UQM7)
UniProt Q9UQM7, sequence (whole entry, looked up): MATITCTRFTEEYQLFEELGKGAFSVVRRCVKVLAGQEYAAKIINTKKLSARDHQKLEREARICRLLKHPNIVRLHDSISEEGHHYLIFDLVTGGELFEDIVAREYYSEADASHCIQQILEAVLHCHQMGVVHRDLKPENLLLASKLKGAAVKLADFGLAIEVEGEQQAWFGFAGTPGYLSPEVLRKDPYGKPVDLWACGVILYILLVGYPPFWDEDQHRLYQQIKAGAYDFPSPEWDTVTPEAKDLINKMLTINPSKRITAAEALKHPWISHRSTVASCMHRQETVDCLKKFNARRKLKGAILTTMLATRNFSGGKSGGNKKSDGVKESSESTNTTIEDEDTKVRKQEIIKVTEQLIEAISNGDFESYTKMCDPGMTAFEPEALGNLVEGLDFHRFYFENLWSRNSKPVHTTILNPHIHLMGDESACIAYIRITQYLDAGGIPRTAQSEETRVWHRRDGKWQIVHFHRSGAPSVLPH
SMILES | inhibition
OCCc1ccc(O)c(O)c1 | -15%
C[C@@H]1O[C@@H](Oc2cc(O)c3c(=O)c(O)c(-c4ccc(O)cc4)oc3c2O)[C@H](O)[C@H](O[C@@H]2O[C@H](CO)[C@@H](O)[C@H](O)[C@H]2O)[C@H]1O | -7%
Cc1cc(/C=C/C#N)cc(C)c1Nc1ccnc(Nc2ccc(C#N)cc2)n1 | -14%
CC1(C)CC[C@]2(C(=O)O)CCC3=C([C@@H](CCl)C[C@@H]4[C@@]5(C)C[C@H](O)[C@H](O)[C@@](C)(C(=O)O)[C@@H]5CC[C@@]34C)[C@@H]2C1 | 9%
CCOC(=O)c1ccc(O)c(O)c1 | 4%
C[C@]12CC[C@@H]3c4ccc(OC(=O)c5ccccc5)cc4CC[C@H]3[C@@H]1CC[C@@H]2O | 7%
C=CC[S@+]([O-])C[C@H](N)C(=O)O | -15%
CC(C)(O)[C@@H]1CC[C@](C)([C@H]2[C@@H](O)C[C@@]3(C)[C@@H]4C[C@H](O)[C@H]5C(C)(C)[C@@H](O)CC[C@]5(C)C4=CC[C@]23C)O1 | -1%
CC(=O)O[C@]1(C(C)=O)CC[C@H]2[C@@H]3C=C(Cl)C4=CC(=O)[C@@H]5C[C@@H]5[C@]4(C)[C@H]3CC[C@@]21C | -9%
CC(C)(C)NC[C@H](O)c1ccc(O)c(CO)c1 | 1%
CC1(C)O[C@H]2CC(=O)OC[C@@]23[C@H]1CC(=O)[C@@]1(C)C2=CC(=O)O[C@@H](c4ccoc4)[C@]2(C)CC[C@@H]13 | -6%
C/C(=C\CC[C@@H](C)[C@H]1CC[C@@]2(C)C3=CC[C@H]4C(C)(C)[C@@H](O)CC[C@]4(C)C3=CC[C@]12C)CO | -25%
O=c1cc(-c2ccc(O)cc2)oc2c([C@@H]3OC[C@@H](O)[C@H](O)[C@H]3O)c(O)c([C@@H]3O[C@H](CO)[C@@H](O)[C@H](O)[C@H]3O)c(O)c12 | -30%

Series 3 — observed: cell-free assay; technique: competition with immobilised ligand; concentration: 1 µM
SMILES: CNCc1ccccc1-c1csc([C@@H](C)Nc2nc(C)nc3cc(OC)c(OC)cc23)c1
target | remaining binding
KDR (Homo sapiens, UniProt P35968) | 93%
PIP4K2B (Homo sapiens, UniProt P78356) | 100%
TNIK (Homo sapiens, UniProt Q9UKE5) | 85%
MAST1 (Homo sapiens, UniProt Q9Y2H9) | 76%
MARK3 (Homo sapiens, UniProt P27448) | 89%
EPHA3 (Homo sapiens, UniProt P29320) | 87%
MAP4K5 (Homo sapiens, UniProt Q9Y4K4) | 100%
PIK3CA (Homo sapiens, UniProt P42336, E545A) | 91%
PIM1 (Homo sapiens, UniProt P11309) | 97%
CSK (Homo sapiens, UniProt P41240) | 100%
SBK3 (Homo sapiens, UniProt P0C264) | 100%
TLK1 (Homo sapiens, UniProt Q9UKI8) | 100%
KIT (Homo sapiens, UniProt P10721, L576P) | 92%
MAPK3 (Homo sapiens, UniProt P27361) | 94%
PAK3 (Homo sapiens, UniProt O75914) | 86%
MAP3K1 (Homo sapiens, UniProt Q13233) | 72%
SRMS (Homo sapiens, UniProt Q9H3Y6) | 92%
PDPK1 (Homo sapiens, UniProt O15530) | 92%

Series 4 — observed: enzyme activity; action: inhibitor; concentration: 0.5 µM; reference: control
Target: Protein-tyrosine kinase 6 (PTK6, Homo sapiens, UniProt Q13882)
UniProt Q13882, sequence (whole entry, looked up): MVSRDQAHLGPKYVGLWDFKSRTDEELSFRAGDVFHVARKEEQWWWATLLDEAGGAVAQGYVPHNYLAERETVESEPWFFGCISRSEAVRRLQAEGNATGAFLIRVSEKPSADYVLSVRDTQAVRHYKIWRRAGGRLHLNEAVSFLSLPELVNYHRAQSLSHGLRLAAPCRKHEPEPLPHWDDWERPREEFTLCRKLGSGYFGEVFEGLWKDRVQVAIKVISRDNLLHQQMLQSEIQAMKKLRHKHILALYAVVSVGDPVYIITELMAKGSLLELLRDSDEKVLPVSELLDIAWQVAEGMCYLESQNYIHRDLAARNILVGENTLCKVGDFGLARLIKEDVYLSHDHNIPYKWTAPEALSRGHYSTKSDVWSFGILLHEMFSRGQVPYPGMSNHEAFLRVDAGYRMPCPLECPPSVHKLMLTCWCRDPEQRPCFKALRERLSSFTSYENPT
SMILES | remaining activity
Nc1cccc(-c2cc3c(Oc4cccc(O)c4)ncnc3[nH]2)c1 | 11.1%
N#Cc1c(NC(=O)c2cccc3ccccc23)sc2c1CCCC2 | 89.8%
O=C(Nc1cccc(Nc2nccc(Nc3cccc(C(F)(F)F)c3)n2)c1)C1CC1 | 72.3%
CN(C)C[C@H]1CCn2c(c(C3=C(c4cn(C)c5ccccc45)C(=O)NC3=O)c3ccccc32)C1 | 90.4%
CCN(CC)CCNC(=O)c1c(C)[nH]c(/C=C2\C(=O)Nc3ccc(F)cc32)c1C | 84.5%
COc1cc2ncnc(Nc3cccc(Cl)c3)c2cc1OC | 39%
CCOc1nc(NC(=O)Cc2cc(OC)ccc2OC)cc(N)c1C#N | 93.6%
COc1cc2ncnc(Nc3ccc(O)c(Br)c3)c2cc1OC | 20.1%
CN([C@@H](Cc1ccc(OS(=O)(=O)c2cccc3cnccc23)cc1)C(=O)N1CCN(c2ccccc2)CC1)S(=O)(=O)c1cccc2cnccc12 | 89.7%
N#C/C(=C\c1ccc(O)c(O)c1)C(=O)NCc1ccccc1 | 86.7%
c1ccc(-c2cnc(Nc3ccc(OCCN4CCCC4)cc3)s2)cc1 | 80.8%
CCN(CC)C(=O)c1ccc(Nc2nc(OCC3CCCCC3)c3[nH]cnc3n2)cc1 | 30.7%
COc1cc2c(cc1OC)-c1[nH]nc(Nc3cccc(F)c3)c1C2 | 81%
O=C(NC(NC(=S)Nc1ccc(F)c([N+](=O)[O-])c1)C(Cl)(Cl)Cl)C(c1ccccc1)c1ccccc1 (stereo not drawn) | 87.8%
c1ccc(-c2[nH]ncc2-c2ccnc3ccccc23)nc1 | 70.9%
Cn1nc2c3c(cccc31)C(=O)c1ccccc1-2 | 91.8%
O=C1C(Cl)=C(N2C(=O)CCC2=O)C(=O)c2ccccc21 | 94.8%
O=C1c2ccccc2-c2n[nH]c3cccc1c23 | 94.1%
C[C@@H]1CCN(C(=O)CC#N)C[C@@H]1N(C)c1ncnc2[nH]ccc12 | 101%
O=c1cc(-c2cccc3c2Sc2ccccc2S3)oc(N2CCOCC2)c1 | 90.6%
Ic1cccc(CSc2nnc(-c3ccncc3)o2)c1 | 104%
CCN(CC)CCNC(=O)c1c(C)[nH]c(/C=C2\C(=O)Nc3ccc(Cl)cc32)c1C | 51.3%
Cc1nc2cc3nc(-c4cccs4)cnc3cc2n1C | 88.6%
Cc1cc2ncc(-c3ccccc3)nc2cc1C | 93.6%
Cc1cn(-c2cc(NC(=O)c3ccc(C)c(Nc4nccc(-c5cccnc5)n4)c3)cc(C(F)(F)F)c2)cn1 | 70.4%

For quick reference, copied from above (series 1):
Structure (SMILES) | remaining compound [%]
CC(C)n1nc(-c2nnc(-c3cccc(Br)c3)[nH]2)c2ccccc2c1=O | 5.63
Clc1ccc(OCCn2cnc(Cl)c2Cl)cc1 | > 99
Cc1c2c(=O)[nH]cnc2c(C(=O)c2ccccc2)n1-c1ccccc1 | 80.9
O=S1(=O)CCC(S(=O)(=O)N2CCN(c3ccccc3)CC2)C1 (stereo not drawn) | 34.6
Cc1occc1C(=O)N1CCC2(CCc3nnc(C(C)C)n3CC2)CC1 | 81.5
Cc1ccc(C)c(-n2nnnc2SCc2nc3cc(C(F)(F)F)ccc3c(=O)[nH]2)c1 | 21.3
C=CC(C)(O)CC[C@]1(C)[C@H]2CC(=O)C=C(C)[C@]2(C)C[C@@H](O)[C@@H]1C (stereo partly drawn) | 10.5
Fc1ccc2nc(-c3csc(-c4ccco4)n3)[nH]c2c1 | 0.053
COc1ccc2c(c1)cc(C(=O)Nc1c(C)cccc1C)n2C | 3.57
Cc1sc(NC(=O)NCCC(=O)OC(C)C)c(C#N)c1C | 0.454
O=C1Nc2ccccc2C12Oc1ccccc1C1CC(c3cccnc3)=NN12 (stereo not drawn) | 18.9
COc1nn(C)c(=O)n1-c1cccc(Cl)c1Cl | 6.45
